# Results gathered from unrelated publications.
# Lines come from different studies, so protocols differ.
# B1: LYS1 C205S/H96Q/K77M (Saccharomyces cerevisiae, UniProt P38998); chain MAAVTLHLRAETKPLEARAALTPTTVKKLIAKGFKIYVEDSPQSTFNINEYRQAGAIIVPAGSWKTAPRDRIIIGLMEMPETDTFPLVHEHIQFAQCYKDQAGWQNVLMRFIKGHGTLYDLEFLENDQGRRVAAFGFYAGFAGAALGVRDWAFKQTHSDDEDLPAVSPYPNEKALVKDVTKDYKEALATGARKPTVLIIGALGRSGSGAIDLLHKVGIPDANILKWDIKETSRGGPFDEIPQADIFINCIYLSKPIAPFTNMEKLNNPNRRLRTVVDVSADTTNPHNPIPIYTVATVFNKPTVLVPTTAGPKLSVISIDHLPSLLPREASEFFSHDLLPSLELLPQRKTAPVWVRAKKLFDRHCARVKRSSRL
# B2: ST3GAL1 K315V (Sus scrofa, UniProt Q02745); chain ELSENFKKLMKYPYRPCTCTRCIEEQRVSAWFDERFNRSMQPLLTAKNAHLEEDTYKWWLRLQREKQPNNLNDTIRELFQVVPGNVDPLLEKRLVSCRRCAVVGNSGNLKESYYGPQIDSHDFVLRMNKAPTEGFEADVGSKTTHHFVYPESFRELAQEVSMILVPFKTTDLEWVISATTTGRISHTYVPVPAKIKVKKEKILIYHPAFIKYVFDRWLQGHGRYPSTGILSVIFSLHICDEVDLYGFGADSKGNWHHYWENNPSAGAFRVTGVHDGDFESNVTTILASINKIRIFKGR
# B3: enzyme M389A (Pediococcus pentosaceus, UniProt A0AB73HHR8); chain MKNYTDYFFDEQAFDLHDGGYVPLEVSDAPEKPLNVPPLLKPDKETATDVYYTVTAEAGETQLLPGAKTKTWGYNTSLLGQTIVYRRGQHTHVTLKNTLPELTTFHWHGANVSGPYVDGGCHAPVYPGESKHIDFTLEQPATTLWLHAHPCPSTAEQVWHGLAAMVIVKDDHEASLPLPRNYGVDDIPVILQDRRFHENNQWDYRADYDPDGVAGPTAMINGTINPYFDVTTQKVRLRFLDGANRREWRLHFSDDLPFTQIGGDGSLLPEPVKFTHLMLTCAERAEVIVDFGQYHEGDEVTLYTDDVPLLKFRIHAFKPDQTTLPDKLFDVKAPVVDPALPVRHVVMQGMDEGVAIDGKKFAMQRIDATQPIGKAQYWDVTNSNDAPGAVHPFHVHGTQFLVLSRNGHAPYPNEHGFKDTIGVNPGETVRLLVRFDLPGVYMYHCHIIEHEDGGMMAQIETFDPAKPKQEYKLMDMDTLMMALAKERGVKPSEIWMGGMQSYEKMGMKM
# B4: GLA (Homo sapiens, UniProt P06280); chain LDNGLARTPTMGWLHWERFMCNLDCQEEPDSCISEKLFMEMAELMVSEGWKDAGYEYLCIDDCWMAPQRDSEGRLQADPQRFPHGIRQLANYVHSKGLKLGIYADVGNKTCAGFPGSFGYYDIDAQTFADWGVDLLKFDGCYCDSLENLADGYKHMSLALNRTGRSIVYSCEWPLYMWPFQKPNYTEIRQYCNHWRNFADIDDSWKSIKSILDWTSFNQERIVDVAGPGGWNDPDMLVIGNFGLSWNQQVTQMALWAIMAAPLFMSNDLRHISPQAKALLQDKDVIAINQDPLGKQGYQLRQGDNFEVWERPLSGLAWAVAMINRQEIGGPRSYTIAVASLGKGVACNPACFITQLLPVKRKLGFYEWTSRLRSHINPTGTVLLQLENTMQMSLKDLL
# B5: enzyme T248A (Glycine max, UniProt I1LJ26); chain MMELFLSCMVLFVLTLATLGAHWIWVVSSSRAGSKLPPGPFPLPIIGNLLALGKKPHQSLAKLAETHGPIMTLKFGQVTTIVVSSADMAKEVLLTHDHSLSSNRVIPQAVQVHNHHNHSITFLPVSPLWRDLRKICIANLFSNKTLDASQDLRRSKLHQLLHDIHRSSLAGEAVDVGKAVFNTSMNLLSNTFFSLDLVHSSSSAAAVDFKDLVLKIMEESGKPNLADFFPVLKFMDPQGIKTRTTVYAGKIIDTFRALIHQRLKLRENNHGHDTNNDMLNTLLNCQEMDQTKIEHLALTLFVAGTDTITSTVEWAMAELLQNEKAMSKAKQELEETIGRGKAVEESDIGRLPYLQAVIKETFRLHPAVPFLIPRKANADVEISGGYTIPKDAQVFVNVWAIGRNSSIWKNNANVFSPERFLMDSEDIDVKGHSFELTPFGAGRRICLGLPLAMRMLYLVLGSLINCFNWKLVEDDDVMNMEDSFGITLAKAQPVILIPEKVHGVIVS
# Sequence of UniProt Q9Y233 (whole entry, looked up): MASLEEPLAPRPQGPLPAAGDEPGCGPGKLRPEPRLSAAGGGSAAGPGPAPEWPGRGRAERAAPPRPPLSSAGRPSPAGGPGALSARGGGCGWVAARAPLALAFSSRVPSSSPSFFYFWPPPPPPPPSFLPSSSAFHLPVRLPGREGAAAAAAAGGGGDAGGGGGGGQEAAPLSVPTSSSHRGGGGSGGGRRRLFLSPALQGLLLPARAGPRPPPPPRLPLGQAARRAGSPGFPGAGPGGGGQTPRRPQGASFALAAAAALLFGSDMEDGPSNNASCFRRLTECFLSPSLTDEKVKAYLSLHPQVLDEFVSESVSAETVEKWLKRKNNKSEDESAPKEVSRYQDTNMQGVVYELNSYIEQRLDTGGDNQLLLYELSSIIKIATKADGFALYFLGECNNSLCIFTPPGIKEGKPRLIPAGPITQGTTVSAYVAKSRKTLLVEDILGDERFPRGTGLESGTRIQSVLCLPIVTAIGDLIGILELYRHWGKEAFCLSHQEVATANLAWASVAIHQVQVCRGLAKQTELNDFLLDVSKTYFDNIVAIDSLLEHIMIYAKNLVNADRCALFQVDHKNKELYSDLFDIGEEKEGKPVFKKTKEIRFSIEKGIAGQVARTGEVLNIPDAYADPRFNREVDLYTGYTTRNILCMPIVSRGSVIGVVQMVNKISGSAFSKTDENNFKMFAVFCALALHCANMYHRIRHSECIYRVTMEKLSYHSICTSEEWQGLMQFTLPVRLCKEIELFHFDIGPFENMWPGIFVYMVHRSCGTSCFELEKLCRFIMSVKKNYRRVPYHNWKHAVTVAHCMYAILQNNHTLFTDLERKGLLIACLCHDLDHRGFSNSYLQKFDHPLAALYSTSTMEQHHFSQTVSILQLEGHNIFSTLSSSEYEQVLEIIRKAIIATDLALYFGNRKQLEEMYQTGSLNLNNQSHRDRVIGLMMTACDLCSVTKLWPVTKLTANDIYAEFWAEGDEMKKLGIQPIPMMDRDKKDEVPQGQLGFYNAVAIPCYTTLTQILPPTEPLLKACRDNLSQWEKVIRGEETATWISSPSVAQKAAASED
# Sequence of UniProt P32664 (whole entry, looked up): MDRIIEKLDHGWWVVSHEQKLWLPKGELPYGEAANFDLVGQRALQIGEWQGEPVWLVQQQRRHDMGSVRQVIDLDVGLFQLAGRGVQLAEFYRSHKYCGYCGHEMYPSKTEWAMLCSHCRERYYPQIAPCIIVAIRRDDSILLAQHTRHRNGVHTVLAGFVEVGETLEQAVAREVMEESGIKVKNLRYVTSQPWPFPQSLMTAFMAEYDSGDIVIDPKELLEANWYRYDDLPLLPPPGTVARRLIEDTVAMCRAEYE
# Sequence of UniProt P77488 (whole entry, looked up): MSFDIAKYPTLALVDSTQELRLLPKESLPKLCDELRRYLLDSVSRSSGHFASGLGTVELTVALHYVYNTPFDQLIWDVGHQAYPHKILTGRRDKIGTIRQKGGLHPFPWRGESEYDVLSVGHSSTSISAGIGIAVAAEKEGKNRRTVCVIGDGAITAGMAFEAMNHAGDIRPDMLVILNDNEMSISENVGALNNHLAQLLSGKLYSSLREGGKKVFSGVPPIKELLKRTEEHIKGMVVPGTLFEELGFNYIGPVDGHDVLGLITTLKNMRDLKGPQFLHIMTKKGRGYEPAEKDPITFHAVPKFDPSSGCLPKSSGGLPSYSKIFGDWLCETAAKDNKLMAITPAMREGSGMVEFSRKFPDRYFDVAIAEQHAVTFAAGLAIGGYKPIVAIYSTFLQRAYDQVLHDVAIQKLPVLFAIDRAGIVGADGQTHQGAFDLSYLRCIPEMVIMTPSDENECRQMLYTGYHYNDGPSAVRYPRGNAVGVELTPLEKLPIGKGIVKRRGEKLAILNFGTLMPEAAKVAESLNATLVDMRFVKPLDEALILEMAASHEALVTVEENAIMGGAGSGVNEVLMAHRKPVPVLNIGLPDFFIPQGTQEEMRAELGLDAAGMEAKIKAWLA
Substance,tested on,assay,test system,conditions,scale,measurement,result
B1 (LYS1 C205S/H96Q/K77M),NCCCC[C@H](N)C(=O)O,steady-state kinetics,,"pH 7, 25 °C, added: NADH 0.5 mM",,Km,96000 µM
GGGAGAACUUCGACCAGAAGUCACACCCUCUAACGCACAUUACGCUAAACCCUCUCAGCCUAUGUGCGCAUACAUGGAUCCUC (ssRNA; 2'-fluoro pyrimidines),integrin alphaV/beta3 31-992/27-718 (Homo sapiens),SPR,RNA,added: MnCl2 1 mM,higher = more binding,relative binding,73.5 RU
GCCGGCCGGCCG (dsDNA),"Fibroin-modulator-binding protein-1 99-193 (Bombyx mori, UniProt Q5FBS0)",ITC,"double-stranded DNA, one strand shown",,,Kd,5.05 µM
ALFEWIPRV,Jurkat T cells expressing 1G4 TCR,"NFAT-eGFP reporter, flow cytometry",peptide,"concentration not given, HLA-A*02:01 NY-ESO system",,reporter activation,0.11%
GSGAGRETEV,human MAGI1-2/6 PDZ construct (MBP fusion),automated holdup,"peptide, purified PDZ protein","concentration not given, unit not given","reference: biotin control resin, higher = stronger binding",binding intensity,0.0853
HNL C81L/E79H/G176S/H103V/K236M/N104T/T11G/V106F (Hevea brasiliensis),CC(=O)Oc1ccc([N+](=O)[O-])cc1,steady-state kinetics,,"pH 7.2, 22 °C",,Km,80 µM
acsA I222V/L233M (Pseudomonas chlororaphis),O=C(O)CCC(F)(F)F,steady-state kinetics,,pH 7,,Km,900 µM
B2 (ST3GAL1 K315V),CC(=O)N[C@H]1[C@H]([C@H](O)[C@H](O)CO)O[C@](OP(=O)(O)OC[C@H]2O[C@@H](n3ccc(N)nc3=O)[C@H](O)[C@@H]2O)(C(=O)O)C[C@@H]1O,steady-state kinetics,,,,Km,38.8 µM
PFGSLLDYV,"HLA class I histocompatibility antigen, A alpha chain, allele A*01:01 (Homo sapiens, UniProt P04439)",conformational ELISA,peptide,concentration not given,"reference: positive control peptide, direction not given",binding score,0.1%
B3 (enzyme M389A),CCn1c(=NN=c2sc3cc(S(=O)(=O)O)ccc3n2CC)sc2cc(S(=O)(=O)O)ccc21,steady-state kinetics,,"pH 3.7, 24 °C",,Km,110 µM
B4 (GLA),O=c1ccc2nc3ccc(O[C@H]4O[C@H](CO)[C@H](O)[C@H](O)[C@H]4O)cc3oc-2c1,steady-state kinetics,,,,Km,20.9 µM
"nudC (Escherichia coli, UniProt P32664)",Nc1ncnc2c1ncn2[C@@H]1O[C@H](COP(=O)(O)OP(=O)(O)OP(=O)(O)OP(=O)(O)OP(=O)(O)OC[C@H]2O[C@@H](n3cnc4c(N)ncnc43)[C@H](O)[C@@H]2O)[C@@H](O)[C@H]1O,steady-state kinetics,,added: Mg2+,,Km,15 µM
"dxs (Escherichia coli, UniProt P77488)",O=C(CO)[C@@H](O)[C@H](O)COP(=O)(O)O,steady-state kinetics,,added: ThDP,,Km,38 µM
"PDE10A (Homo sapiens, UniProt Q9Y233)",[H][C@@]12COP(=O)(O)O[C@@]1([H])[C@@H](O)[C@H](n1cnc3c(=O)[nH]c(N)nc31)O2,steady-state kinetics,,,,Km,5.4 µM
B5 (enzyme T248A),O=c1c(-c2ccc(O)cc2)coc2cc(O)ccc12,steady-state kinetics,,"pH 7, 28 °C, not purified, added: MnCl2 10 mM",,Km,54.1 µM

# Repeated from above:
Substance,tested on,assay,test system,conditions,scale,measurement,result
ALFEWIPRV,Jurkat T cells expressing 1G4 TCR,"NFAT-eGFP reporter, flow cytometry",peptide,"concentration not given, HLA-A*02:01 NY-ESO system",,reporter activation,0.11%
GSGAGRETEV,human MAGI1-2/6 PDZ construct (MBP fusion),automated holdup,"peptide, purified PDZ protein","concentration not given, unit not given","reference: biotin control resin, higher = stronger binding",binding intensity,0.0853
